# Experimental data of several laboratories.
# Each line is one published result; not all experiments were run side by side. “And” joins repeats or separate records; there may be more than shown. ± gives the spread as reported.
SMILES,cell line,test,setting,scale,quantity,value
O=C1CCP(=O)(c2ccccc2)CC1,SW480,MTT,72 h,baseline: IC50 HaCaT over IC50 SW480,selectivity index,1
COC1=C2CC(C)CC(OC)C(O)C(C)C=C(C)C(OC(N)=O)C(OC)C=CC=C(C)C(=O)NC(=CC1=O)C2=O (centres unmarked),Rh30,"ChIP-seq, measured: H3K36me3 peak","concentration not given, FIGNL1 TTS chr7:50505600-50516799",baseline: untreated control,log fold change,-0.538
Cc1ccc(-n2cc(CSc3nc4ccccc4n3Cc3cn(-c4ccc(C)cc4)nn3)nn2)cc1,Caco-2,MTT,7.81 ppm,,viability,61.4%
O=C(CCCCCOc1ccc2ccccc2c1)N[C@@H](CO)C[C@@H](O)c1ccc(-c2ccccc2)cc1,HeLa,"HPLC-MS-MS lipidomics, measured: C18 SM and ceramide","1 µM, 24 h",baseline: SM over Cer,SM/Cer ratio,"26 ,1"
Cc1cc(NC2CCN(C)CC2)ccc1-c1cc2c(N3CCC[C@H](C(=O)N[C@H](C)c4ccccc4)C3)ncnc2[nH]1,NCI-H2228,"cell growth or viability, MTT","0.2 µg/mL, 72 h",,inhibition,77.2%
CNS(=O)(=O)Nc1nccc(Cc2c(C)c3ccc(Oc4ncccc4F)cc3oc2=O)c1F,NCI-H2286,cell viability,7 days,,IC50,> 1000 nM
Cc1sc2c(c1C)C(c1ccc(Cl)cc1)=N[C@@H](CC(=O)NCC(=O)N1CCC3(CCC(C(=O)N4CCN(C(=O)c5cc(Cc6n[nH]c(=O)c7ccccc67)ccc5F)CC4)CC3)CC1)c1nnc(C)n1-2,NCI-H82,,"10 nM, 24 h",,cells in G1 phase,28%
O=C(CSc1cccc[n+]1[O-])c1ccccc1Br,LDR,"silenced CMV-GFP reporter derepression, qHTS",,,Emax,80%
Cc1ncsc1-c1ccc(C(C)NC(=O)C2CC(O)CN2C(=O)C(NC(=O)CCCCCCCCCCN2CCCC(Nc3ncc(Cl)c(Nc4ccccc4S(=O)(=O)C(C)C)n3)C2)C(C)(C)C)cc1 (centres unmarked),22Rv1,"RNA-seq, measured: NBPF20 mRNA",concentration not given,baseline: DMSO,log2 fold change,-2.31
Cn1ncc2cc(-c3cncc(Cl)c3N3CCC4(CCNC4=O)CC3)ccc21,LS174T,"gene expression, microarray, measured: SMPD1 mRNA","concentration not given, 4 h",baseline: untreated cells,log2 fold change,-1.38
O=C(C[Se]C(=O)c1cc2ccccc2[nH]1)Nc1cccc(C(F)(F)F)c1,NCI60 NSCLC subpanel,NCI60 five-dose screen,,,GI50,1330 nM
CN1CCCNC(=O)c2cccc(c2)C(=O)NCCCN(C)CCCNc2cccc3c2C(=O)c2cccc(c2C3=O)NCCC1,SAS,"RNA-Seq, measured: CDCA7 mRNA","1 µM, 6 h",baseline: untreated cells,log2 fold change,-1.07
O=C(NCc1ccc(OC(F)(F)F)cc1)[C@H]1CCCN(c2ncnc3[nH]c(-c4cccs4)cc23)C1,NCI-H2228,"cell growth or viability, MTT","0.04 µg/mL, 72 h",,inhibition,31.6%
CC(C)c1ccc(N(C)c2ccc3c(c2)OCC[C@H]3CNc2cnccc2C(=O)O)cc1,Hs 739.T,"cell growth, CellTiter-Glo",7 days,,IC50,≥ 10000 nM
CO[C@@H]1[C@@H](OC(N)=O)[C@@H](O)[C@H](Oc2ccc3c(O)c(NC(=O)c4ccc(O)c(CC=C(C)C)c4)c(=O)oc3c2C)OC1(C)C,HCT-116 BRCA2 wild-type,,"250 µM, replicate B",baseline: untreated,colony survival,4.77%
CCCC[C@H](NC(=O)[C@H](CC(C)C)NC(=O)[C@H](CO)NC(=O)[C@H](CO)NC(=O)[C@H](C)NC(=O)[C@H](CO)NC(=O)[C@H](C)N)C(=O)N[C@@H](CC(=O)O)C(=O)N[C@@H](CCCCN)C(=O)N[C@@H](CCC(=O)O)C(=O)N[C@@H](C)C(=O)N[C@H](C(=O)N[C@@H](Cc1ccc(O)cc1)C(=O)N[C@@H](Cc1ccccc1)C(=O)N[C@@H](C)C(=O)N[C@@H](Cc1c[nH]cn1)C(=O)N[C@@H](CC(C)C)C(=O)N[C@@H](CC(=O)O)C(=O)N[C@H](C(=O)N[C@H](C(=O)N[C@@H](Cc1c[nH]c2ccccc12)C(=O)O)[C@@H](C)CC)[C@@H](C)CC)C(C)C,COS-7 ETBR-GFP,"calcium flux, agonist",ETBR/ETAR ratio 1:0.5,,Emax,90 ± 5%
COc1cc(-c2cc3c(N4CCC[C@H](C(=O)NCc5ccc(OC(F)(F)F)cc5)C4)ncnc3[nH]2)cc(OC)c1OC,NCI-H2228,"cell growth or viability, MTT","0.2 µg/mL, 72 h",,inhibition,57.6%
COC(=O)c1cc(NC2=NC(=O)C(=Cc3ccc(N(C)C)cc3)S2)ccc1OC(C)=O,MCF7,"GC-MS, measured: Spermine",1 µM,baseline: DMSO,metabolite level,-0.29 fold change
COc1ccc(NC(=O)c2ccc3[nH]c(-c4ccc(N(C)C)cc4)nc3c2)cn1,HCT116,IncuCyte,"concentration not given, 6 h",,dead cell to confluence ratio,9.46 and 3.16 and 12.2
O=C(C[Se]C(=O)c1cccnc1Nc1cccc(C(F)(F)F)c1)Nc1cccc(C(F)(F)F)c1,LNCaP,Muse oxidative stress,"10 µM, 24 h, added: H2O2 250 µM",,ROS-positive cells,~15%
CCN(CC)CC(=O)Nc1cccc(-n2cc(-c3ccc4ccc(-c5cn(-c6cccc(NC(=O)CN(CC)CC)c6)nn5)cc4c3)nn2)c1,RCC4,"PCR angiogenesis array, measured: PLG","5 x IC50, 4 h, normoxia",baseline: untreated,fold regulation,-1.07
Cc1cc(NC2CCN(C)CC2)ccc1-c1cc2c(N3CCC[C@H](C(=O)NCc4ccc(Cl)nc4)C3)ncnc2[nH]1,NCI-H2228,"cell growth or viability, MTT","1 µg/mL, 72 h",,inhibition,66%
CCC(=CCc1c(O)cc2c(c1O)C(=O)CC(c1ccc(O)cc1)O2)CC (centres unmarked),HeLa,flow cytometry,"24 µM, 48 h",,active caspase-3 cells,15.7%
Cc1cc(NC2CCN(C)CC2)ccc1-c1cc2c(N3CCC[C@H](C(=O)Nc4cccc(Cl)c4)C3)ncnc2[nH]1,NCI-H2228,"cell growth or viability, MTT","0.04 µg/mL, 72 h",,inhibition,60.6%
Cc1c(Cl)cccc1Nc1ccccc1C(=O)[Se]CC(=O)Nc1cccc(C(F)(F)F)c1,NCI60 renal subpanel,"total growth inhibition, inhibitor",five-dose,,mean TGI,3390 nM
O=C(NN1C(=O)c2ccccc2NC1c1ccc([N+](=O)[O-])o1)c1ccc([N+](=O)[O-])cc1 (centres unmarked),LDR,"silenced CMV-GFP reporter derepression, qHTS",,,efficacy,113%
COc1ccccc1-c1ccncc1C(=O)Nc1ccc(OCc2ccc(Cl)cc2)nn1,DLD-1 BRCA2-/-,,"20 µM, mean of 3 replicates",baseline: untreated,colony survival,98.7%
O=C(NCc1ccc(OC(F)(F)F)cc1)[C@H]1CCCN(c2ncnc3[nH]c(-c4ccncc4)cc23)C1,NCI-H2228,"cell growth or viability, MTT","1 µg/mL, 72 h",,inhibition,72%
O=C(C[Se]C(=O)c1ccc2ccccc2n1)Nc1cccc(C(F)(F)F)c1,NCI60 renal subpanel,"cell growth, inhibitor",five-dose,,GI50,1910 nM
C(=N\Nc1nc(-c2ccccn2)nc2ccccc12)/c1ccccc1,LDR,"silenced CMV-GFP reporter derepression, qHTS",,,efficacy,202%
COc1ccc(-c2cc3c(N4CCC[C@H](C(=O)NCc5ccc(OC(F)(F)F)cc5)C4)ncnc3[nH]2)cn1,NCI-H2228,"cell growth or viability, MTT","0.04 µg/mL, 72 h",,inhibition,21%
COc1ccc2c(c1)OC1=C(C(=O)CCC1)C2c1c[nH]c2ccccc12 (centres unmarked),3T3-L1 adipocytes,"qPCR, measured: GLUT4","IC20, 14 days",baseline: untreated mature adipocytes,mRNA level,decreased
CC(=O)NCCCN(C)CCCNc1cccc2c1C(=O)c1cccc(NCCCN(C)CCCNC(C)=O)c1C2=O,SAS,"RNA-Seq, measured: RBM43 mRNA","1 µM, 6 h",baseline: untreated cells,log2 fold change,-3.2
CCN(C(=O)c1cc(F)ccc1Oc1nncnc1N1CCC2(C1)CN([C@H](CCCN(C)CCOC)C(C)C)C2)C(C)C,786-O,cell growth,72 h,,GI50,> 10000 nM
COc1ccccc1-c1ccncc1C(=O)Nc1nnc(OCc2ccc(Cl)cc2)s1,MDA-MB-231,,6 µM,,colony count,21 and 33
O=C(C[Se]C(=O)c1ccc2ccccc2c1)Nc1cccc(C(F)(F)F)c1,NCI60 NSCLC subpanel,NCI60 five-dose screen,,,GI50,1780 nM
O=C(N1CCCC1)n1cc(-c2ccc(-c3ccccc3)cc2)nn1,mouse T cells,"N-terminal labelling proteomics, measured: Oxsr1 N-terminal peptide","0.001 µM, 6 h",baseline: DMSO,SILAC ratio per peptide,1.17 and 0.95 and 1.09
CC1=C/C(=N\N=C(/S)Nc2cccnc2)CC(C)(C)C1,LDR,"silenced CMV-GFP reporter derepression, qHTS",,,Emax,211%
O=C(NCc1ccc(OC(F)(F)F)cc1)[C@H]1CCCN(c2ncnc3[nH]c(-c4cccnc4)cc23)C1,NCI-H2228,"cell growth or viability, MTT","0.008 µg/mL, 72 h",,inhibition,20.3%
C=CS(=O)(=O)c1ccc(OC)c(-c2c[nH]c3ncc(-c4cncc(C(=O)N(C)C)c4)cc23)c1,Ba/F3 BCR-ABL T315I,cell proliferation,72 h,,GI50,> 1000 nM
Cc1ccc(/C=N/N=C(\S)Nc2cccc(S(=O)(=O)N(C)C)c2)o1,LDR,"silenced CMV-GFP reporter derepression, qHTS",,,EC50,3980 nM
CCNc1cc2c(cc1C)C1(c3cc(C)c(NCC)cc3O2)c2ccccc2C(=O)N1N=Cc1c[c-]c(-c2ccccn2)cc1.Cc1c(C)c(-c2ccc(-c3ccccc3)cc2)[c-](C)c1C.[Cl-].[Ir+3],A549,PI flow cytometry,"2 x IC50, 24 h",,S phase cells,33.6 ± 0.23%
CCC(=O)N1CCN(c2ccc(NC(=O)c3ccc([N+](=O)[O-])o3)cc2Cl)CC1,LDR,"silenced CMV-GFP reporter derepression, qHTS",,,Emax,50%
COc1c(C)c(OC(=O)c2ccccc2)c(C)c(OC(=O)c2ccccc2)c1C(=O)/C=C/c1ccccc1,KKU-M213,SRB,,baseline: normal over KKU-M213 IC50,selectivity index,0.8

# Excerpt of the above:
SMILES,cell line,test,setting,scale,quantity,value
CNS(=O)(=O)Nc1nccc(Cc2c(C)c3ccc(Oc4ncccc4F)cc3oc2=O)c1F,NCI-H2286,cell viability,7 days,,IC50,> 1000 nM
Cc1sc2c(c1C)C(c1ccc(Cl)cc1)=N[C@@H](CC(=O)NCC(=O)N1CCC3(CCC(C(=O)N4CCN(C(=O)c5cc(Cc6n[nH]c(=O)c7ccccc67)ccc5F)CC4)CC3)CC1)c1nnc(C)n1-2,NCI-H82,,"10 nM, 24 h",,cells in G1 phase,28%
